Results gathered from unrelated publications.
Each numbered part is a random draw from the data of one study; scales do not carry over between parts. Changes are numbered by the printed parent chain.

Block 1 — technique: protein-binding microarray; form: double-stranded DNA, one strand shown; medium: in vitro; tested at: 250 nM; setting: 60-bp whole probe; together with: salmon DNA 0.4 mg/ml; baseline: random background probes; direction: higher = stronger binding; all sequences stand within: GCCTAGCAC … GTCTTGATTCGCTTGACGCTGCTG
Target: Interferon regulatory factor 7, full length, phosphomimetic (IRF7, Homo sapiens, UniProt Q92985, residues 1-503, S101K/S471D/S472D/S475D/S476D/S477D/S483D/S484D/S487D)
Sequence of UniProt Q92985 (whole entry, unmodified, looked up): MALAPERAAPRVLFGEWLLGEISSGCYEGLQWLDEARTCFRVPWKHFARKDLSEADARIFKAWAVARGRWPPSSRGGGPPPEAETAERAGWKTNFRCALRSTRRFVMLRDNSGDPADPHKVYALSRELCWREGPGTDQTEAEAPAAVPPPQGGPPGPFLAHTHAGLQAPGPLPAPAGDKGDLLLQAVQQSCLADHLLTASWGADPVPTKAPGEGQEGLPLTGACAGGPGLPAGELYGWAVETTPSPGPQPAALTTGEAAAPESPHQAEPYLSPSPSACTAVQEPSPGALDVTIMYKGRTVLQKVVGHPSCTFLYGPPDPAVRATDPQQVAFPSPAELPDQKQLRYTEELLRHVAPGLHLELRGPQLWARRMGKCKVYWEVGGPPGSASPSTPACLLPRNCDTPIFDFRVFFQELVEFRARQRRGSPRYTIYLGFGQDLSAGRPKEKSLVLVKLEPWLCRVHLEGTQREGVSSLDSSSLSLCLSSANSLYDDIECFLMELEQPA
The log fluorescence of `GACGGTCTCCTTATCGTGACGTGCTAG` is reported as -0.0422 z-score.
`TTAGGTCGCCTTATCCTTTAGTGCTAG` has a log fluorescence of -0.102 z-score.
`GACGGTTTCGGTCTCCGGACGTGCTAG` has a log fluorescence of 8.95 z-score.
With `TCACTCTGCTCTTTTCAAACTGTGCTA` the log fluorescence was 0.294 z-score.
For `CACGGTATCGGGACTGGGGACGTGCTA`, the log fluorescence was 0.1 z-score.
With `GTCAGGGGTCTTGCTCTGTAGTGCTAG` the log fluorescence was -0.834 z-score.
The log fluorescence of `TTAGGAATCGGTCTCGGTTAGTGCTAG` is reported as 2.09 z-score.
The log fluorescence of `TTAAGACTGCTTCTCCTTTAGTGCTAG` is reported as 0.269 z-score.
`GACGCTATCAGACTGGAGACGTGCTAG` gave a log fluorescence of -0.331 z-score.
For `ATAGATTCCAGTTTCGATTAGTGCTAG`, the log fluorescence was 9.81 z-score.
The log fluorescence of `TTAAATCTCAGTTTCGATTAGTGCTAG` is reported as 8.85 z-score.
For `GACGGTATCCTTATTCTGACGTGCTAG`, the log fluorescence was 0.164 z-score.
The log fluorescence of `TTAGGACTGGGGTTTCGGTTAGTGCTA` is reported as 5.66 z-score.
`TTAGGACTGCTTTTCCTTTTGTGCTAG` has a log fluorescence of 1.53 z-score.
For `CCTTTTATGGTTTTTTTTTAGTGCTAG`, the log fluorescence was 1.85 z-score.
`TTAGGTATTGGTATCGGTTAGTGCTAG` has a log fluorescence of 1.32 z-score.
With `AGAGTTCCAGACAGCTCCCTGTGCTAG` the log fluorescence was -0.122 z-score.
`GACGATAACGGGTTTCGAGACGTGCTA` gave a log fluorescence of 2.59 z-score.
The log fluorescence of `TTAGGTATCGGAACTGGGTTAGTGCTA` is reported as 0.39 z-score.

Block 2 — technique: DHFR PCA, deep sequencing; medium: yeast; together with: (+)-ABA 200 µM; baseline: wild-type fitted maximum; direction: higher = stronger binding
Target: ABI1, truncated, D143A, DHFR fusion (Arabidopsis thaliana)
Setting: methotrexate growth selection, single substitutions
Starting sequence: PYL1, truncated, DHFR fusion (Arabidopsis thaliana); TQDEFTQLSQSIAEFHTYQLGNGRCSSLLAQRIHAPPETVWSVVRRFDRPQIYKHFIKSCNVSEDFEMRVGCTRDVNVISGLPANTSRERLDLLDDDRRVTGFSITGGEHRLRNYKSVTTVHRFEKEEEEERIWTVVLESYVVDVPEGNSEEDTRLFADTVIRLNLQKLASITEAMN
For `R113M`, “relative binding score” read 107%.
`R99M` — result for “relative binding score”: 107%.
`V145N`: “relative binding score” 60.5%.
Under “relative binding score”, `K58E` is recorded as 95.2%.
`K116P` — result for “relative binding score”: -3.33%.
For `E127D`, “relative binding score” read 112%.
`S26I`: “relative binding score” 74.8%.
`E129W` — result for “relative binding score”: 91.6%.
Under “relative binding score”, `R24I` is recorded as 94.3%.
For `P50M`, “relative binding score” read 0.185%.
Under “relative binding score”, `G108E` is recorded as 30.4%.

Block 3 — target: CCND3, cyclin fold, Cln2 fusion (human); technique: yeast growth competition, sequencing; medium: yeast; setting: weak parent motif; baseline: not given; direction: higher = stronger binding
Starting sequence: PKN2 docking peptide (human); VSAVQKLDFSDTM; partner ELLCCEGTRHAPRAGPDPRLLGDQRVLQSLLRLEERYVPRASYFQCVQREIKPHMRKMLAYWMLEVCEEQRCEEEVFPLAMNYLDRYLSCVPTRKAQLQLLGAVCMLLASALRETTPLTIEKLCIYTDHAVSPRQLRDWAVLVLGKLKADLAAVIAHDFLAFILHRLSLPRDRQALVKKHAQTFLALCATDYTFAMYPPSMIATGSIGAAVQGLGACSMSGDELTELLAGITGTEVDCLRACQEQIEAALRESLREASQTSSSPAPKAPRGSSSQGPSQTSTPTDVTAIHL
Under “normalised enrichment score”, `S10W` is recorded as 0.0965.
`K6Y`: “normalised enrichment score” 0.0952.
Under “normalised enrichment score”, `V4N` is recorded as 0.064.
Under “normalised enrichment score”, `S10Y` is recorded as 0.156.
`K6R`: “normalised enrichment score” 0.111.
`F9M` — result for “normalised enrichment score”: 0.0936.
For `V1Y`, “normalised enrichment score” read 0.132.

Mixed results
With `PhoQ, residues 284 288 289 292 302 303 AEGLLW` the fold induction was 1.47 (PhoP, residues 12 14 15 18 19 LHSVQ (Escherichia coli, UniProt P23836); Sort-seq, refers to: YFP reporter; E. coli; PhoQ-PhoP variant library, together with: 10 µM Mg2+; baseline: high Mg2+ state, higher = stronger signaling).

For quick reference, copied from above (block 1):
For `ATAGATTCCAGTTTCGATTAGTGCTAG`, the log fluorescence was 9.81 z-score.
The log fluorescence of `TTAAATCTCAGTTTCGATTAGTGCTAG` is reported as 8.85 z-score.
For `GACGGTATCCTTATTCTGACGTGCTAG`, the log fluorescence was 0.164 z-score.
